Measured values pooled from the literature.
Every numbered part comes from another study and shows a few of its results, in no order. Positions count from the first letter of the parent shown.

Block 1 — method: protein-binding microarray; molecule type: double-stranded DNA, one strand shown; medium: in vitro; concentration: 2200 nM top; setting: 60-bp whole probe; together with: salmon DNA 0.4 mg/ml; baseline: random background probes; direction: higher = stronger binding; measurement: fitted relative affinity; all sequences stand within: GCCTAGCAC … GTCTTGATTCGCTTGACGCTGCTG
Target: Interferon regulatory factor 7, full length, phosphomimetic (IRF7, Homo sapiens, UniProt Q92985, residues 1-503, S471D/S472D/S475D/S476D/S477D/S483D/S484D/S487D)
Residues (chain): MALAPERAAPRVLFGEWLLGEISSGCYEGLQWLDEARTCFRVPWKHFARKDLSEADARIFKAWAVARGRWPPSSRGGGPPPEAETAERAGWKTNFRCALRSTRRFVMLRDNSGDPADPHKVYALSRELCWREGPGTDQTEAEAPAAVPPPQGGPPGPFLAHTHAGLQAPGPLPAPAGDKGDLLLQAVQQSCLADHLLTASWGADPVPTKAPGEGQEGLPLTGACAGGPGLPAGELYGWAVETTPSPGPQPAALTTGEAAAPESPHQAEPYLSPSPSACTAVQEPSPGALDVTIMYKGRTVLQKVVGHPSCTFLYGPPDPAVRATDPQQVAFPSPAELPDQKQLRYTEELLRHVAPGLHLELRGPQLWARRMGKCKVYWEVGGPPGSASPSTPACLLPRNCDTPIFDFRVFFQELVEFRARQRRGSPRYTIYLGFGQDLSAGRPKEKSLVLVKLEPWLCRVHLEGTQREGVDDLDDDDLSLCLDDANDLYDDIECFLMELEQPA
GACGAGTTCAGTTTCGAGACGTGCTAG: 3.75 z-score
TTAGAAATCAGTCTCGATTAGTGCTAG: -0.211 z-score
GACGAACTGGGGTTTGGAGACGTGCTA: -0.0209 z-score
TCACCTATCTCCTCACAGACTGTGCTA: 2.02 z-score
GACGGACTGCGTATCCTGACGTGCTAG: 0.314 z-score
TTTGATTTCGGGTATCGATTAGTGCTA: 3.6 z-score
TTAGGTATCCGTATCGGTTAGTGCTAG: 0.737 z-score
TTAGATTTCAGTTCCAATTAGTGCTAG: 1.4 z-score

Block 2 — method: protein binding microarray; molecule type: double-stranded DNA, one strand shown; medium: in vitro; concentration: not given; baseline: not given; direction: higher = stronger binding; measurement: E-score
Target: Histone acetyltransferase KAT6A, both winged helices, GST fusion (KAT6A, Homo sapiens, UniProt Q92794, residues 1-181)
Setting: 8-mer, flanks averaged, mean of 2 arrays, mostly near background
Construct (chain): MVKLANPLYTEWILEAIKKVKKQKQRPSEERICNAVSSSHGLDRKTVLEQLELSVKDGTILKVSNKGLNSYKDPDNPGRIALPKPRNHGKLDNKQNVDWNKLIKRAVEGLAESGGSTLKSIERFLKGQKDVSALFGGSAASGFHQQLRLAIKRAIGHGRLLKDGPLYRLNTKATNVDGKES
GACTATAC: -0.00918
TGTGATAA: -0.0628
GCTGGAGA: -0.224
AGAACCAT: -0.0854
AAACGAAG: -0.0865
AAATGTGG: -0.103
CCATAGCG: 0.106
GCATGCGA: 0.125

Block 3 — target: CCNA2, cyclin fold, Cln2 fusion (human); method: yeast growth competition, sequencing; medium: yeast; setting: strong parent motif; baseline: not given; direction: higher = stronger binding; measurement: normalised enrichment score
Parent: RBL2 docking peptide (human); STTRRRLFVENDS; partner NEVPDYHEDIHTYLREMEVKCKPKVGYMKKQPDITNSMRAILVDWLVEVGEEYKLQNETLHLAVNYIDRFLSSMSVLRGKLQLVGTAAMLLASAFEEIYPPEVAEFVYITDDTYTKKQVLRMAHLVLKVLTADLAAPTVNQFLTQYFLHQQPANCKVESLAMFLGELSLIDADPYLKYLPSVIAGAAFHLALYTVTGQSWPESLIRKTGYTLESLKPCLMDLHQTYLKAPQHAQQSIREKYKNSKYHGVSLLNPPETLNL
STTRRRLFVTNDS [E10T]: 4.78
STTRRRDFVENDS [L7D]: 1
STTRRRLFVPNDS [E10P]: 6.44
STPRRRLFVENDS [T3P]: 4.29
QTTRRRLFVENDS [S1Q]: 5.44

Further values, each from its own experiment
PhoQ, residues 284 288 289 292 302 303 TLSLKA  fold induction (PhoP, residues 12 14 15 18 19 NHFIF (Escherichia coli, UniProt P23836); Sort-seq, item: YFP reporter; E. coli; PhoQ-PhoP variant library, together with: 10 µM Mg2+; baseline: high Mg2+ state, higher = stronger signaling): 1.09

Excerpt of the above (block 1):
TTAGAAATCAGTCTCGATTAGTGCTAG: -0.211 z-score
TCACCTATCTCCTCACAGACTGTGCTA: 2.02 z-score
